Results gathered from unrelated publications.
Each line is one published result; not all experiments were run side by side. Several values in a cell are separate wells, animals, samples, runs or records. ± marks the error that the study gave.
PPARG: Peroxisome proliferator-activated receptor gamma (PPARG, Homo sapiens, UniProt P37231)
UniProt P37231, sequence (whole entry, looked up): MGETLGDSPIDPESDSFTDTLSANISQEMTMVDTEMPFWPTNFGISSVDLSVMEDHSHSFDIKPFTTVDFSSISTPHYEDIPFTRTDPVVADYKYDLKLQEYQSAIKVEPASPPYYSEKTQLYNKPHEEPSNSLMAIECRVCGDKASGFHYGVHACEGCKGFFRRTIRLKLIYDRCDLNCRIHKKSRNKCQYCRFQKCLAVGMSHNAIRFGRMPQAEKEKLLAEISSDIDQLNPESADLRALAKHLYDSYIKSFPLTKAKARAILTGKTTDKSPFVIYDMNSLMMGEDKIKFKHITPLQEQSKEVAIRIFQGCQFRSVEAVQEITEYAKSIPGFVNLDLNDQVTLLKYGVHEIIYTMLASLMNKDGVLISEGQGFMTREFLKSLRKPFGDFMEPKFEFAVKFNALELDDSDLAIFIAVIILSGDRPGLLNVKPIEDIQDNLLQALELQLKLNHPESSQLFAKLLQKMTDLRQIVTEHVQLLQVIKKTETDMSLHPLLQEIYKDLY
G-protein coupled receptor 39: G-protein coupled receptor 39 (Mus musculus, UniProt Q5U431)
UniProt Q5U431, sequence (whole entry, looked up): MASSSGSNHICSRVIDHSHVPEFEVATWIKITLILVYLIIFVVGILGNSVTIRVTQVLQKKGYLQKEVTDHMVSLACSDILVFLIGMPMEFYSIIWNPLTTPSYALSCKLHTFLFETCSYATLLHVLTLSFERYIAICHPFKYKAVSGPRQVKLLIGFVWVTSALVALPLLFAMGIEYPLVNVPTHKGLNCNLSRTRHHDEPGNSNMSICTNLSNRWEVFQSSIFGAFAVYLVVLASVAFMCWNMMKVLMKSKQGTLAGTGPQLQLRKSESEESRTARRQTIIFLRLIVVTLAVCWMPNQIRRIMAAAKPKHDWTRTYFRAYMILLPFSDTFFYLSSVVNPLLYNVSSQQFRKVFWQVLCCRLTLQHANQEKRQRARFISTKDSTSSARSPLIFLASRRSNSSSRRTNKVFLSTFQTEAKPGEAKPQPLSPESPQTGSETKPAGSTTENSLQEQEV
CXCL8: Interleukin-8 (CXCL8, Homo sapiens, UniProt P10145)
UniProt P10145, sequence (whole entry, looked up): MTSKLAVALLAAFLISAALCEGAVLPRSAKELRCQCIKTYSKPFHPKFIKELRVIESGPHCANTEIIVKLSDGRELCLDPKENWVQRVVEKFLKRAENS
PPARG ligand-binding domain: Peroxisome proliferator-activated receptor gamma, ligand-binding domain (PPARG, Homo sapiens, UniProt P37231)
UniProt Q9SZU7, sequence (whole entry, unmodified, looked up): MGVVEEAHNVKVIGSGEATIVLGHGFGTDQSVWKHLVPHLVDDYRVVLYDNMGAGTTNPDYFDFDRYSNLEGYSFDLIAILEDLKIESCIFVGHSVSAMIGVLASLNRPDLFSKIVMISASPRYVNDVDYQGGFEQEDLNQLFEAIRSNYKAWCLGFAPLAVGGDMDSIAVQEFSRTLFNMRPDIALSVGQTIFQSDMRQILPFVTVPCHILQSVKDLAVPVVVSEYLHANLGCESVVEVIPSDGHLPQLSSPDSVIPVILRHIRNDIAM
UniProt Q8TDU6, sequence (whole entry, looked up): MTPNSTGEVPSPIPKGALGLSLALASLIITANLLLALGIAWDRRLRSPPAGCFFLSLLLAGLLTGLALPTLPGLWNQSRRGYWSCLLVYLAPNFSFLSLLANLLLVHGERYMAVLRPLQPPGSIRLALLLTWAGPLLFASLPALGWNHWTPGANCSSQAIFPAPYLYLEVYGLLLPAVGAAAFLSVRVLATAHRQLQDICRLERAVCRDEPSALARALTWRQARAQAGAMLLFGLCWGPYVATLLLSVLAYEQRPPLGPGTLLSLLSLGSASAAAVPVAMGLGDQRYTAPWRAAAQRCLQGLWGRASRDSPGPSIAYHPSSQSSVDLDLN
UniProt Q9NQU5, sequence (whole entry, looked up): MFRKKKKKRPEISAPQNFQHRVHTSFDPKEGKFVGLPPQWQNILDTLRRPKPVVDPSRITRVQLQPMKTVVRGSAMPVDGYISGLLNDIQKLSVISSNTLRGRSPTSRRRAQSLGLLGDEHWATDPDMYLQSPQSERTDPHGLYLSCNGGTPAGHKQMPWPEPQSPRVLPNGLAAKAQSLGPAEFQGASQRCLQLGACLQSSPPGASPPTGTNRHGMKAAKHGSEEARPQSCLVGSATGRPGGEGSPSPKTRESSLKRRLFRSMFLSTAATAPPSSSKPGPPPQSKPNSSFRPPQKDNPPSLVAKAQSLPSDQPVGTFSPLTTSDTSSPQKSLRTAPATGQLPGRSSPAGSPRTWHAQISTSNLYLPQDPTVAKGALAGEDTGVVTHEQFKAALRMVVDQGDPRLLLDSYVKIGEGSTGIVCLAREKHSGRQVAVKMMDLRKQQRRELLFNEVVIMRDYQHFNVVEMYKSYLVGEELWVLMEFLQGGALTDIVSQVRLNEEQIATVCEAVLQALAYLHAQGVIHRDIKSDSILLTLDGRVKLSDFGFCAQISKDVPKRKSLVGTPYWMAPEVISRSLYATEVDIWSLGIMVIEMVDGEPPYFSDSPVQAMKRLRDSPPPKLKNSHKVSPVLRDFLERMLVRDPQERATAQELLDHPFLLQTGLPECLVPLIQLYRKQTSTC
UniProt P51531, sequence (whole entry, looked up): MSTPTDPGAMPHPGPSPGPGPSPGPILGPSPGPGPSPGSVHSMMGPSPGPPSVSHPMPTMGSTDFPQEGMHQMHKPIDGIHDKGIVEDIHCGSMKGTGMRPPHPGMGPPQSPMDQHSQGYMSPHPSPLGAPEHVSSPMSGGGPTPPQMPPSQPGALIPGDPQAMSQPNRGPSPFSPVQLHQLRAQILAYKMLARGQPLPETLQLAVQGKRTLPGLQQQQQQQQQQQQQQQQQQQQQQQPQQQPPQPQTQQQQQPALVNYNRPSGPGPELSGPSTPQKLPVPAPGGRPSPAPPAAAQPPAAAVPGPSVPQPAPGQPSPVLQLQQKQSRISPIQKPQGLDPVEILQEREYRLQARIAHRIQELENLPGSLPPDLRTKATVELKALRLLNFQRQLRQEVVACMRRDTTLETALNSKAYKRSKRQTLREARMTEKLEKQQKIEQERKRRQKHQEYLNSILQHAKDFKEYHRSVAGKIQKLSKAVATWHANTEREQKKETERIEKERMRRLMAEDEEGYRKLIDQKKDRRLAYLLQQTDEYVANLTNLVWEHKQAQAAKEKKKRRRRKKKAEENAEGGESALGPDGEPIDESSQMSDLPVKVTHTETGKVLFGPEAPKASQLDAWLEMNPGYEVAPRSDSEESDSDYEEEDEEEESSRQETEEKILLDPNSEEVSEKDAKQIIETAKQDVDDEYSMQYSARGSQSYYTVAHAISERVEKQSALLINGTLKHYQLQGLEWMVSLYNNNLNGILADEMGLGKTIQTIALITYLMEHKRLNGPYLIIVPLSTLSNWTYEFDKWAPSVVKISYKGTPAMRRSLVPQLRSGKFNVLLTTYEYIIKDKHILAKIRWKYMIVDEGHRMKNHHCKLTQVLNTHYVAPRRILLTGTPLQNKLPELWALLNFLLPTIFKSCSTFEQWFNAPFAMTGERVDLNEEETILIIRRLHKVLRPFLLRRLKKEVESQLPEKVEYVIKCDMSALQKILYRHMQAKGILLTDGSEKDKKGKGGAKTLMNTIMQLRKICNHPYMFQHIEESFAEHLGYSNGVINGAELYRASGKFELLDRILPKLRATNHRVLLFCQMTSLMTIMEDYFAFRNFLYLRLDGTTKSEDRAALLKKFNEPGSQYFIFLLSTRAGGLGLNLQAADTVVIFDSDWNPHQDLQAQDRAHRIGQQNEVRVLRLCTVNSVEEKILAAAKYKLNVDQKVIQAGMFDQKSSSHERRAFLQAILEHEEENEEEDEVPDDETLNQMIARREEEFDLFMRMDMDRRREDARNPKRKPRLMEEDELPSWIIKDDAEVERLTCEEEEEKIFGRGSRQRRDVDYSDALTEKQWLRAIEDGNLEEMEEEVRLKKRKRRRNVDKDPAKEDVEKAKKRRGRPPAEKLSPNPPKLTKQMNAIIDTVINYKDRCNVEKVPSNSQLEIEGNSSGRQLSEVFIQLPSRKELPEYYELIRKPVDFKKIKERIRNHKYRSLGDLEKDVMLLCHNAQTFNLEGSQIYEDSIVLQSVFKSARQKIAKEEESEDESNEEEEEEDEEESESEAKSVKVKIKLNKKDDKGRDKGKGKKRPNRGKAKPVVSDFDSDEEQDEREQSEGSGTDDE
UniProt P36507, sequence (whole entry, looked up): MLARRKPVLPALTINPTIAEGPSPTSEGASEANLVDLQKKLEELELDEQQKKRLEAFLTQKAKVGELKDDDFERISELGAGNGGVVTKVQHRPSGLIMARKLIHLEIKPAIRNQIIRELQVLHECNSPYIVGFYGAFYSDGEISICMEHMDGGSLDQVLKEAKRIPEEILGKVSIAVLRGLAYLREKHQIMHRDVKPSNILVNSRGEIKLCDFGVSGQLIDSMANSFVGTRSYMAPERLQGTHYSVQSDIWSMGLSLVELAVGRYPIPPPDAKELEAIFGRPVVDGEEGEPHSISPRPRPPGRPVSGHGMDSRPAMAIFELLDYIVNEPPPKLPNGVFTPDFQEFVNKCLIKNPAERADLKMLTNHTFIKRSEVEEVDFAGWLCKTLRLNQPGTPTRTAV
UniProt P08172, sequence (whole entry, looked up): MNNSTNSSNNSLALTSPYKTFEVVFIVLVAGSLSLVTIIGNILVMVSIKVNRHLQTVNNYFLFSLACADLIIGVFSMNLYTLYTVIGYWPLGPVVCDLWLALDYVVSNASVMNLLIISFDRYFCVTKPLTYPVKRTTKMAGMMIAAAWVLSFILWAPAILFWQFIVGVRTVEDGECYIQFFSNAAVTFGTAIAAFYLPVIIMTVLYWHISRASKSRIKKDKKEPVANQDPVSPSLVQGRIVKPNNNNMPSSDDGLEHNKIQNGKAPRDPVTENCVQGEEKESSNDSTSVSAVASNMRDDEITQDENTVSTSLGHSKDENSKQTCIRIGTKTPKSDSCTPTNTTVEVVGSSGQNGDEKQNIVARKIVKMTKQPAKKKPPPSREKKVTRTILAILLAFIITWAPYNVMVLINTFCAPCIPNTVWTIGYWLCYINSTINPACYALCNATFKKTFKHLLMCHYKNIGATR

SMILES	target	test	system	conditions	quantity	value
CC(CCC(=O)NCCS(=O)(=O)O)C1CCC2C3CCC4CC(OS(=O)(=O)O)CCC4(C)C3CC(O)C12C (stereo not shown)	G-protein coupled bile acid receptor 1 (GPBAR1, Homo sapiens, UniProt Q8TDU6)	agonist	–	–	EC50	> 200 µM
Cc1c[nH]c2nccc(-c3ccc(C(=O)N[C@@H]4c5c(F)cc(C(F)F)cc5C[C@@H]4O)cn3)c12	Dual specificity mitogen-activated protein kinase kinase 2 (MAP2K2, Homo sapiens, UniProt P36507)	binding, competition with immobilised ligand	–	–	Kd	0.255 µM
Cc1cccc([C@H](C)NC(=O)c2ccc3c(Cc4cccc(OC(C)(C)C(=O)O)c4)c(C)n(C)c3c2)c1	PPARG	ligand displacement, TR-FRET	–	–	IC50	0.0005 µM
CC(CCC(=O)NCC(=O)O)C1CCC2C3C(O)CC4CC(O)CCC4(C)C3CC(O)C12C (stereo not shown)	G-protein coupled receptor 39	calcium signal, agonist, fluorescence	–	–	EC50	> 200 µM
Cc1c(Cc2cc(F)cc(OC(C)(C)C(=O)O)c2)c2ccc(C(=O)N[C@@H](C)c3cc(F)cc(C(C)(C)C)c3)cc2n1CC(C)C	PPARG	ligand displacement, TR-FRET	–	–	IC50	0.00895 µM
CC(=O)N[C@@H]1[C@@H](O[C@@H]2O[C@H](C(=O)O)[C@@H](O[C@@H]3O[C@H](COS(=O)(=O)O)[C@@H](OS(=O)(=O)O)[C@H](O[C@@H]4O[C@H](C(=O)O)[C@@H](OS(=O)(=O)O)[C@H](OS(=O)(=O)O)[C@H]4OS(=O)(=O)O)[C@H]3NC(C)=O)[C@H](OS(=O)(=O)O)[C@H]2OS(=O)(=O)O)[C@H](OS(=O)(=O)O)[C@@H](COS(=O)(=O)O)O[C@H]1N=[N+]=[N-]	CXCL8	probe displacement, FP competition	–	protein 800 nM, together with: TAMRA-labelled sHA tetramer probe	EC50	24.1 ± 2.4 µM
CC(C)(C)n1nc(-c2ccc(Cl)cc2)c2c(N)ncnc21	Proto-oncogene tyrosine-protein kinase Src (SRC, Gallus gallus, UniProt P00523, G530I/P529E/Q528E)	enzyme activity, inhibitor, radiometric	–	–	Ki	0.087 µM
CC(C)C[C@H](NC(=O)CNC(=O)[C@H](C)NC(=O)[C@H](C)NC(=O)[C@H](CCCNC(=N)N)NC(=O)CNC(=O)CCCCNC(=O)CCCCNC(=O)CCCCNC(=O)[C@H](CCCCN)NC(=O)[C@H](Cc1ccc(O)cc1)NC(=O)[C@@H](N)Cc1c[nH]c2ccccc12)C(=O)N[C@H](C(N)=O)C(C)(C)C	Neuropeptides B/W receptor type 1 (NPBWR1, Homo sapiens, UniProt P48145)	calcium signal, agonist	–	–	EC50	0.479 µM
Cc1c(Cc2ccc(Cl)c(OC(C)C(=O)O)c2)c2ccc(C(=O)NC(C)c3cc(F)cc(C(C)(C)C)c3)cc2n1C (stereo not shown)	PPARG ligand-binding domain	reporter gene, luciferase reporter	HEK293T, Gal4-PPARγ LBD	–	IC50	0.28 µM
Cc1nn(-c2cccc(N)c2)c(=O)c2cnc(Nc3ccc(N4CCNCC4)cc3)nc12	Serine/threonine-protein kinase PAK 6 (PAK6, Homo sapiens, UniProt Q9NQU5)	kinase activity, inhibitor, SelectScreen kinase profiling	–	–	IC50	> 10 µM
Cc1c(Cc2ccc(Cl)c(O[C@@H](C)C(=O)O)c2)c2ccc(C(=O)N[C@@H](C)c3ccc(C(C)(C)C)cc3)cc2n1C	PPARG	ligand displacement, TR-FRET	–	–	IC50	0.00072 µM
Nc1nnc(-c2ccccc2O)cc1N1CC2CCC(C1)N2c1ccnc(C#CCCN2CCCCCC2)c1	SWI/SNF-related matrix-associated actin-dependent regulator of chromatin subfamily A member 2 (SMARCA2, Homo sapiens, UniProt P51531)	degrader, immunofluorescence	SW1573	–	DC50	0.00025 µM
CC(CCC(=O)NCC(=O)O)C1CCC2C3C(O)CC4CC(O)CCC4(C)C3CCC12C (stereo not shown)	G-protein coupled receptor 39	calcium signal, agonist, fluorescence	–	–	EC50	> 200 µM
Cc1c(Cc2ccc(OC(C)C(=O)O)cc2)c2ccc(C(=O)N[C@@H](C)c3ccc(C(C)C)cc3)cc2n1C (stereo partly shown)	PPARG	ligand displacement, TR-FRET	–	–	IC50	0.971 µM
Cc1cccc2c1N(C(=O)n1ccnn1)CC2	KAI2 (Arabidopsis thaliana, UniProt Q9SZU7, I193A)	ITC	–	I193A mutant	Kd	32.8 µM and 35.2 µM and 48.8 µM
CC(CCC(=O)NCCS(=O)(=O)O)C1CCC2C3C(O)CC4CC(O)CCC4(C)C3CC(O)C12C (stereo not shown)	G-protein coupled receptor 39	calcium signal, agonist, fluorescence	–	–	EC50	> 200 µM
CC(=O)N[C@@H]1[C@@H](O[C@@H]2O[C@H](C(=O)O)[C@@H](O[C@@H]3O[C@H](COS(=O)(=O)O)[C@@H](O)[C@H](O[C@@H]4O[C@H](C(=O)O)[C@@H](O)[C@H](O)[C@H]4O)[C@H]3NC(C)=O)[C@H](O)[C@H]2O)[C@H](O)[C@@H](COS(=O)(=O)O)O[C@H]1N=[N+]=[N-]	CXCL8	probe displacement, FP competition	–	protein 800 nM, together with: TAMRA-labelled sHA tetramer probe	EC50	6280 ± 775 µM
Cc1c(Cc2cc(Cl)cc(O[C@H](C)C(=O)O)c2)c2ccc(C(=O)N[C@@H](C)c3ccc(C(C)(C)C)cc3)cc2n1CC1CCC1	PPARG ligand-binding domain	reporter gene, luciferase reporter	HEK293T, Gal4-PPARγ LBD	–	IC50	0.94 µM
C=CCn1c(=O)c2ccccc2n2c(SCC(=O)Nc3ccc(NC(C)=O)cc3)nnc12	Muscarinic acetylcholine receptor M2 (CHRM2, Homo sapiens, UniProt P08172)	binding affinity, allosteric modulator	–	–	Kb	5.9 ± 1 µM
